Measured values collected from several papers.
Numbered parts are unrelated; each lists some results of a single study. Substitutions count along the parent as printed.

Sample 1 — method: aptamer microarray, sandwich; form: DNA with 2'F-ANA; medium: in vitro; tested at: 200 nM; added: Cy3 exosite-II aptamer, 400 nM; direction: higher = stronger binding; oligonucleotide: GGTTGGTGTGGTTGG
Target: Prothrombin, mature alpha-thrombin (F2, Homo sapiens, UniProt P00734)
Setting: whole 15-mer aptamer, many near background
Under “mean fluorescence intensity”, `2'F-ANA at 1 2 4 5 6 9 10 11 13 14 15` is recorded as 46.8 a.u.
Under “mean fluorescence intensity”, `2'F-ANA at 2 4 8 9 12 13 15` is recorded as 414 a.u.
For `2'F-ANA at 1 2 5 9 11 12 15`, “mean fluorescence intensity” read 79.7 a.u.
`2'F-ANA at 2 5 8 9 12`: “mean fluorescence intensity” 180 a.u.
Under “mean fluorescence intensity”, `2'F-ANA at 2 3 4 5 9 10 11 12` is recorded as 66 a.u.
`2'F-ANA at 3 6 7 9 10 11 12 14`: “mean fluorescence intensity” 384 a.u.
Under “mean fluorescence intensity”, `2'F-ANA at 1 2 3 6 7 10 11` is recorded as 59.3 a.u.
Under “mean fluorescence intensity”, `2'F-ANA at 1 2 3 5 8 9 10` is recorded as 44.6 a.u.
For `2'F-ANA at 3 4 5 9 11 13 14`, “mean fluorescence intensity” read 51.7 a.u.
`2'F-ANA at 1 6 7 8 12 13 15`: “mean fluorescence intensity” 353 a.u.
`2'F-ANA at 1 2 3 5 6 7 12` — result for “mean fluorescence intensity”: 110 a.u.
For `2'F-ANA at 2 4 5 7 12 15`, “mean fluorescence intensity” read 137 a.u.
For `2'F-ANA at 1 3 4 5 14 15`, “mean fluorescence intensity” read 47.3 a.u.
`2'F-ANA at 6 7 8 10 11 13` — result for “mean fluorescence intensity”: 155 a.u.
For `2'F-ANA at 1 2 9 10 14 15`, “mean fluorescence intensity” read 45.7 a.u.
For `2'F-ANA at 2 4 5 9 10 13 14 15`, “mean fluorescence intensity” read 46.5 a.u.
`2'F-ANA at 2 5 8 9 10 11 12 14`: “mean fluorescence intensity” 73.4 a.u.
`2'F-ANA at 1 2 10 14 15` — result for “mean fluorescence intensity”: 58.2 a.u.
`2'F-ANA at 2 6 7 9 15` — result for “mean fluorescence intensity”: 335 a.u.
`2'F-ANA at 1 2 4 6 7 9 11 13` — result for “mean fluorescence intensity”: 70.3 a.u.
`2'F-ANA at 3 4 5 6 7 11 14`: “mean fluorescence intensity” 52.8 a.u.
`2'F-ANA at 4 6 9 10 12 13`: “mean fluorescence intensity” 79.8 a.u.
Under “mean fluorescence intensity”, `2'F-ANA at 1 2 4 6 7 9 12 13 14 15` is recorded as 56.8 a.u.
`2'F-ANA at 1 4 12 13 14` — result for “mean fluorescence intensity”: 56.9 a.u.
For `2'F-ANA at 3 4 7 8 12 13`, “mean fluorescence intensity” read 998 a.u.

Sample 2 — target: CCNE2, cyclin fold, Cln2 fusion (human); method: yeast growth competition, sequencing; medium: yeast; setting: weak parent motif; reference: not given; direction: higher = stronger binding
Starting sequence: FZR1 docking peptide (human); QDYERRLLRQIVI; partner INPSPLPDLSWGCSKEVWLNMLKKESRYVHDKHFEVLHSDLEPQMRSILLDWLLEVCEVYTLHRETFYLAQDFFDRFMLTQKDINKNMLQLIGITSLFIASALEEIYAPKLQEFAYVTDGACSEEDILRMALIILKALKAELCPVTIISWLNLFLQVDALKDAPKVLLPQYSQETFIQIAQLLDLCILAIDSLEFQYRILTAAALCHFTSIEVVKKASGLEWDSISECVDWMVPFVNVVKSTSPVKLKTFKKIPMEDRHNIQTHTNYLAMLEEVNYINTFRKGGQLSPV
Under “normalised enrichment score”, `R5A L7A` is recorded as 0.163.
`L8F`: “normalised enrichment score” 0.653.
Under “normalised enrichment score”, `Q1A` is recorded as 0.456.
`E4A`: “normalised enrichment score” 1.24.
Under “normalised enrichment score”, `R6A` is recorded as 0.538.
`R5K`: “normalised enrichment score” 0.499.
`I13A`: “normalised enrichment score” 0.751.
`R5A`: “normalised enrichment score” 0.182.
For `Q10A`, “normalised enrichment score” read 0.144.
Under “normalised enrichment score”, `R9A` is recorded as 0.231.

Sample 3 — method: Sort-seq; item: YFP reporter; medium: E. coli; setting: PhoQ-PhoP variant library; added: 10 µM Mg2+; reference: high Mg2+ state; direction: higher = stronger signaling
Molecule: PhoQ, residues 284 288 289 292 302 303 AGGCYF
For PhoP, residues 12 14 15 18 19 VHTVL (Escherichia coli, UniProt P23836): fold induction read 6.26.
It gave 7.2 for fold induction (PhoP, residues 12 14 15 18 19 ICWRQ (Escherichia coli, UniProt P23836)).
It gave 0.948 for fold induction (PhoP, residues 12 14 15 18 19 TQCLL (Escherichia coli, UniProt P23836)).

Sample 4 — method: RNA Bind-n-Seq; form: RNA; medium: in vitro; tested at: 365 nM; reference: no-protein control; direction: higher = stronger binding
Target: RNA binding protein fox-1 homolog 2, RRM domain, GST-SBP tag (RBFOX2, Homo sapiens, UniProt O43251-10, residues 100-194)
Setting: natural RNA segment, single round, ends assumed
Construct (chain): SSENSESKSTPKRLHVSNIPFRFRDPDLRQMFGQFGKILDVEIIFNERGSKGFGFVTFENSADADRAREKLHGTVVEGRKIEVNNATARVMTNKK
For `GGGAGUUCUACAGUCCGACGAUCUUAUUUUUACAAAUUAUUGGAAAGAUAUCAUCAAUCGUAAAUUAGCCCUAAAACCUAAAUUUCAUUCAUGAAAUUUUUUUCUAAUUUUAAACACCCAGAAUCCCAUGUCCUGGAAUUCUCGGGUGCCAA`, “RBNS enrichment (R)” read 0.308.
Under “RBNS enrichment (R)”, `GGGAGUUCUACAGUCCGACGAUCGCCAAUUGUAAUUCUUUUGCCCUAAGGACUAGGGACUCCUAAGUUGAGGGUUGUGAUCAGAGGUCCCAUCUCUUUACAGUGUCACUUCAAUCUGUUUGUGUUUCUGAGCCUGGAAUUCUCGGGUGCCAA` is recorded as 0.456.
`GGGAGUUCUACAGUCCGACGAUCCCAUAGCACUGCCCACAACCUGUUCUCACUGCUUAGCUCCCAGCUGGAUUAAAGACACCUGCUCAGGCGGGAGAGAGAGAGAGAGAGCGAGCUUUUACCUUGGAAAAGGUUGGAAUUCUCGGGUGCCAA` — result for “RBNS enrichment (R)”: 0.332.
Under “RBNS enrichment (R)”, `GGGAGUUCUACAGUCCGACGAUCGUGUUUUCUUCCAUUCCUUCUUACUGCCCUGUCCUCUGCCUUGGAAGAGGCUUUGGGAAUAGUUCAUAGGGAAGGGACAACAUGGAAGAAACAGCGAUUUAAAUUGUAUUUGGAAUUCUCGGGUGCCAA` is recorded as 0.221.
Under “RBNS enrichment (R)”, `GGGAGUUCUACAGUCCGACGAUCCCAUCAGUGAACAGAUUGCAUGGCCUUGGAGAGAGACUCUGGGCUUCUGGCUCAGAUGUGUGCAUCCUUUUAGAGCUGUUGUGGGUGUAAGUGACAUGAUGUGGCCAAAAUGGAAUUCUCGGGUGCCAA` is recorded as 1.35.
Under “RBNS enrichment (R)”, `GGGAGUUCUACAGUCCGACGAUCUCCUUCCUUUUCCUUCUUCCUCCAGGUUUUUCAGGGGUCACUUCACAUUUCUAAAGAAAGAGUGAAUAGGCUGGGCAUGGUGGCUCAAGCCUCUAAUCUCAACGCUUUGGUGGAAUUCUCGGGUGCCAA` is recorded as 0.517.
`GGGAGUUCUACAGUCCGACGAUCUAAAAACAUUACAUUUAUUUAUCCAGAAAACUGUGAUUUUAGGAUUACCUAACAUUGCUGGUAAAUAUUUUCAACCUUUGUCCCCACAAAUUGGUAUUUUUAAAGAUGUAUGGAAUUCUCGGGUGCCAA` — result for “RBNS enrichment (R)”: 0.521.
`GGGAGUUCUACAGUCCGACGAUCAAGUGCCUGACAUUGAUUUGUGUUGAUUUCUAAGUCCAUGUAAUAAAUGAUACAUGUUUUCUAUGAUUAUAUUCUUGGGGGUUUUUGUUGUGGUGUUUGUCUUUUUGUUUUGGAAUUCUCGGGUGCCAA`: “RBNS enrichment (R)” 2.03.
`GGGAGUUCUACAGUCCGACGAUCAGGAUUCCGUCUCCUUCAAAGAAGUUUUAUUUUUGGUCCAGAGUACUUGUUUUCCCGAUGUGUCCAGCCAGCUCCGCAGCAGCUUUUCAAAAUGCACUAUGCCUGAUUGCUGGAAUUCUCGGGUGCCAA`: “RBNS enrichment (R)” 0.686.
Under “RBNS enrichment (R)”, `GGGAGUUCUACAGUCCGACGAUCAUUUAUAACCUCAGACUUGGGCCCCCUGUUCUUCUCCAUUAACUUGAGUGUUCUGUGUGAGACCAACAGACAGAUGCCUCAAGGACUUUUACUUUUUAUUACAUAAAAAAUGGAAUUCUCGGGUGCCAA` is recorded as 0.642.
For `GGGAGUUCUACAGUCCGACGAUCGCUUCUGUUCAGGCUCAUGCCAAGCUUGACCGGAUUGGGAGAACUGGACUCAGUUUAACCUGUAUCCACUCUCCUUAGCCAAAGUGUGCGUCUGUCGAAAGCUGAAGUGCUGGAAUUCUCGGGUGCCAA`, “RBNS enrichment (R)” read 0.96.
`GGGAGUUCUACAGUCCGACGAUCGUAAUGGAGUCCCCACCACCGCUUAGGUUCUGCUGGGGUCACACUGCCUUCAGAUUCCUGCCGCCAUCUUCUGCCUGCAGGAUUGGGACUCCCACCCUGGCAUCAGACACUGGAAUUCUCGGGUGCCAA`: “RBNS enrichment (R)” 0.27.

Sample 5 — method: RNA Bind-n-Seq; form: RNA; medium: in vitro; tested at: 200 nM; setting: whole 134-nt RNA, ends assumed; added: 150 mM LiCl; reference: input library; direction: higher = stronger binding; each molecule: 7-deaza-guanosine replaces G
Target: Ras GTPase-activating protein-binding protein 1, full length (G3BP1, Homo sapiens, UniProt Q13283)
Sequence of UniProt Q13283 (whole entry, looked up): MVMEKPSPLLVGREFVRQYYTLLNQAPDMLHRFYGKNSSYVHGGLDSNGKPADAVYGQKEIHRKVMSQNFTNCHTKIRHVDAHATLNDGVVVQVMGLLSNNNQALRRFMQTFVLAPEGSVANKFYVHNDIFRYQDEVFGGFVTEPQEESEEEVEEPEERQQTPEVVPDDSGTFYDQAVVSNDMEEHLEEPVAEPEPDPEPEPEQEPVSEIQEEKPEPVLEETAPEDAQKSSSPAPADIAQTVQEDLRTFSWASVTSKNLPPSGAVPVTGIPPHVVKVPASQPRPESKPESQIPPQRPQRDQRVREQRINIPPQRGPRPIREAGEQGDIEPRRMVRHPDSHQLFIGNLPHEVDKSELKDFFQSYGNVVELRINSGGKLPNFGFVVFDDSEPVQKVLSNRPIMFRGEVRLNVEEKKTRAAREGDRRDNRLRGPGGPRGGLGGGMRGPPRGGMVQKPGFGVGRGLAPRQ
For `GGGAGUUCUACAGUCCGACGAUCAAAAUUUCCAGUACCUUUGUCACAAUCCUAACACAUUAUCGGGAGCAGUGUCUUCCAUAAUGUAUAAAGAACAAGGUAGUUUUUACCUACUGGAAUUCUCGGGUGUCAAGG`, the log2 enrichment was -0.731.
With `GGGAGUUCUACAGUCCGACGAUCCCUGUGCUACACAUCGUAUGUACCGAAUCGGCCCCCCCGGCCCCCCCGGGCCCCCCCGGGAAAGUAUUAUGUUACGCCGUUCGGAUCUGCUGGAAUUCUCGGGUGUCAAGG` the log2 enrichment was 0.349.
For `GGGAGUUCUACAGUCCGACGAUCACCAUCCAGGUGGGCAUCUUUGGGAAGUGGGGCAAGGGGGGGAUAGGGAGGGGGGUAACACUUUGGGAACAGGUGGUCCCAGGUCGUUUCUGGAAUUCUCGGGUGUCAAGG`, the log2 enrichment was 0.445.
The log2 enrichment of `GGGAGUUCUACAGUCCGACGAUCUAACUUUAGAGGAGGAUCUGAUGGAUAUGGCAGUGGACGUGGAUUUGGGGAUGGCUAUAAUGGGUAUGGAGGCGGACCUGGAGGUGGCAAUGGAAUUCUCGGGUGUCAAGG` is reported as -0.169.
The log2 enrichment of `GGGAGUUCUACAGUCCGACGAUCAGUCCUGUGCUACACAUCGUAUGUACCGAAUCAAAUUUUUAAACCCAAAUUUUUAAAAAAGUAUUAUGUUACGCCGUUCGGAUCUGCACUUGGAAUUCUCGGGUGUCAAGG` is reported as -1.73.
`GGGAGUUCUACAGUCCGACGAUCCCUCAAGUCCUGUGCUACACAUCGUAUGUACCGAAUCGGUUGGUUGGUUGGGAAAGUAUUAUGUUACGCCGUUCGGAUCUGCACUUCCAGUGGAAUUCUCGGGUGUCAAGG` gave a log2 enrichment of 0.705.
With `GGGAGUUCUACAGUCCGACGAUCUUCCAUUGUGAACGUGCCUGGUGAGUCUACUCUUCGCCGAGAUUUCCUGAGACUGCAGCAGGAGAACAAGGAACGUUCCGAGGCUCUUCGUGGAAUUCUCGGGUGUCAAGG` the log2 enrichment was -0.735.
For `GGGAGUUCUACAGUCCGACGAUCAGUCCUGUGCUACACAUCGUAUGUACCGAAUCGGGGUUUUGGGUUUUGGGUUUUGGGAAAGUAUUAUGUUACGCCGUUCGGAUCUGCACUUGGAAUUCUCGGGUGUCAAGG`, the log2 enrichment was -0.523.
With `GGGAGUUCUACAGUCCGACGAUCUCCUGUGCUACACAUCGUAUGUACCGAAUCGGCCCCCCGGGGCCCCCCGGCCCCCCGGGGAAAGUAUUAUGUUACGCCGUUCGGAUCUGCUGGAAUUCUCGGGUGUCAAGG` the log2 enrichment was -1.36.
For `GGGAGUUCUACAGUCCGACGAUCUAACUUUAGAGGAGGAUCUGAUGGAUAGGGCAGUGGACGUGGAUUUGGGGAUGGCUAUAAUGGGUAUGGAGGAGGACCUGGAGGUGGCAAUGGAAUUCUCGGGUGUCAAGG`, the log2 enrichment was -0.345.
For `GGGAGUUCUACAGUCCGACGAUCAGUCCUGUGCUACACAUCGUAUGUACCGAAUCGGGGUUUUGGGGUUUUGGUUUUGGGGAAAGUAUUAUGUUACGCCGUUCGGAUCUGCACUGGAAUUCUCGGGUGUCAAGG`, the log2 enrichment was -0.404.
